Published values from different studies.
Lines come from different studies, so protocols differ. ± marks the error that the study gave.

Cc1nc(-c2cnc(NC(C)C)n(C)c2=O)ccc1Oc1ccnc(-c2cnn(C)c2)c1
apparent volume of distribution (DBA/1 mouse, female, plasma; oral, 30 mg/kg, single dose): 2.33 L/kg

O=C(Nc1nc2cccc(-c3ccc(CN4CCS(=O)(=O)CC4)cc3)n2n1)C1CC1
treatment-emergent adverse events (item: dyspepsia; human rheumatoid arthritis patients; oral, 30 mg once daily, 4 weeks, regardless of relatedness): 0%

C=CC(=O)N1CCC(Oc2cc3c(Nc4ccc(Cl)c(Cl)c4F)ncnc3cc2OC)CC1
Vz/F (Sprague-Dawley rat, male, plasma; oral, 2 mg/kg, 1 weeks pretreatment, together with: Schisandrin B 20 mg/kg daily pretreatment): 1.42 ± 0.26 L/kg

CCc1cc(C(=O)NC)c2nccc(N3CCc4c(cc(Cn5ccnc5)cc4-c4cn(C)nc4C(F)(F)F)C3=O)c2c1
heart weight (Sprague Dawley rat; oral, 100 mg/kg twice daily, 7 days): 0.947 ± 0.105 g

Cc1nc2ccc(OCc3ccc(C(F)(F)F)cc3)cc2[nH]1
tissue/plasma ratio (Balb/c mouse, male, lungs; intravenous, 1 mg/kg, 3 h; baseline: tissue over plasma): 2.9 ± 0.6

CC(C)(C(=O)N1CCOc2c(C#N)cncc2C1)C(F)F
subjects with TEAE (item: skin irritation; healthy humans, both sexes; oral, 30 mg single dose): 0%

Cn1cc([C@H]2C[C@H]3CSC(N)=N[C@@]3(c3ccc(F)cc3F)CO2)cn1
plasma concentration (male 129/SVE mouse, plasma; subcutaneous, 50 mg/kg, 13 h): 0.527 µM

CC[C@H](C)[C@H](NC(=O)[C@H](Cc1ccccc1)NC(=O)[C@H](CCC(=O)O)NC(=O)[C@H](CCCCNC(=O)COCCOCCNC(=O)COCCOCCNC(=O)CC[C@H](NC(=O)CCCCCCCCCCCCCCCCC(=O)O)C(=O)O)NC(=O)[C@H](C)NC(=O)[C@H](C)NC(=O)[C@H](CCC(N)=O)NC(=O)CNC(=O)[C@H](CCC(=O)O)NC(=O)[C@H](CC(C)C)NC(=O)[C@H](Cc1ccc(O)cc1)NC(=O)[C@H](CO)NC(=O)[C@H](CO)NC(=O)[C@@H](NC(=O)[C@H](CC(=O)O)NC(=O)[C@H](CO)NC(=O)[C@@H](NC(=O)[C@H](Cc1ccccc1)NC(=O)[C@@H](NC(=O)CNC(=O)[C@H](CCC(=O)O)NC(=O)C(C)(C)NC(=O)[C@@H](N)Cc1cnc[nH]1)[C@@H](C)O)[C@@H](C)O)C(C)C)C(=O)N[C@@H](C)C(=O)N[C@@H](Cc1c[nH]c2ccccc12)C(=O)N[C@@H](CC(C)C)C(=O)N[C@H](C(=O)N[C@@H](CCCNC(=N)N)C(=O)NCC(=O)N[C@@H](CCCNC(=N)N)C(=O)NCC(=O)O)C(C)C
QTcB change from baseline (12-lead Holter ECG; healthy humans; subcutaneous, 1.5 mg once weekly, 25 h, steady state; baseline: placebo): 10.4 ms

C=CC(=O)Nc1cc(Nc2nccc(-c3cn(C)c4ccccc34)n2)c(OC)cc1N(C)CCN(C)C
percentage recovery (storage stability; human dried blood spot samples; 30 d, -80 °C, LLOQ level; baseline: nominal concentration): 40%

CC[C@H](C)[C@@H]([C@@H](CC(=O)N1CCC[C@H]1[C@H](OC)[C@@H](C)C(=O)N[C@@H](Cc1ccccc1)C(=O)NCCCO)OC)N(C)C(=O)[C@@H](NC(=O)[C@H](C(C)C)N(C)C)C(C)C
fraction excreted via CYP metabolism (Sprague Dawley rat; intravenous, 120 h, dosed as NaPi2b ADC, recovery-corrected): 0.0376

CCN1CCN(Cc2ccc(NC(=O)c3ccc(C)c(NC(=O)c4cncc(-c5cccs5)c4)c3)cc2C(F)(F)F)CC1
mean plasma concentration (LC-MS/MS; C57BL/6 mouse, plasma; intraperitoneal, 20 mg/kg single dose, 0.25 h): 0.614 µg/mL

CO[C@H]1C[C@@H]2CC[C@@H](C)[C@@](O)(O2)C(=O)C(=O)N2CCCC[C@H]2C(=O)O[C@H]([C@H](C)C[C@@H]2CC[C@@H](OC(=O)NCCOCCOCCOCCOCCOCCOCCOCCOCCC(=O)N3CCc4cc(Cn5nc(-c6ccc7oc(N)nc7c6)c6c(N)ncnc65)ccc4C3)[C@H](OC)C2)C[C@@H](O)[C@H](C)/C=C(\C)[C@@H](O)[C@@H](OC)C(=O)[C@H](C)C[C@H](C)/C=C/C=C/C=C/1C
AUClast (human patients, plasma; intravenous, 10 mg, cycle 1 day 1, weekly dosing, 1 h infusion, arithmetic mean): 0.491 µg·h/mL

CN1CCN(c2cccc3c2CCN(C(=O)/C=C/c2c(-n4cnnn4)ccc(Cl)c2F)[C@@H]3C(=O)Nc2ccc(C(=O)O)cc2)C(=O)C1
subjects with headache (healthy human subjects; intravenous infusion, 4 mg/h, 2 h): 0%

Cc1cccc(CNC(=O)c2cn(CCNC(=O)c3ccccc3S)c3cc4c(cc3c2=O)OC(F)(F)O4)n1
AUC(0-t) (Sprague-Dawley rat, male, plasma; intramuscular, 30 mg/kg of parent compound): 0.204 ± 0.0429 µg·h/mL

C/C=C/C[C@H](C)[C@@H](OC)[C@@H](C)[C@H](O)C[C@H]1OC(=O)C=C[C@H]1CC
number of metabolites (mass spectrometry; human liver microsomes; concentration not given): 14

N#C[C@@]1(c2ccc3c(N)ncnn23)O[C@H](CO)[C@@H](O)[C@H]1O
AUC(0-t) (dog, plasma; oral, 5 mg/kg, solution, recalculated NCATS data): 19.1 µg·h/mL

N[C@@H](C[18F])C(=O)O
tumour-to-muscle ratio (PET imaging; female athymic nude mice, U-87 MG xenograft; intravenous, 15 min; baseline: tumour over muscle): 1.77 ± 0.44

C=CC(=O)N1CCC(c2ccc(C(N)=O)c(-c3ccc(Oc4ccccc4)cc3)n2)CC1
incidence (serious adverse event Headache; patients with relapsed/refractory MCL; oral): 0.9%

Excerpt of the above:
C=CC(=O)Nc1cc(Nc2nccc(-c3cn(C)c4ccccc34)n2)c(OC)cc1N(C)CCN(C)C
percentage recovery (storage stability; human dried blood spot samples; 30 d, -80 °C, LLOQ level; baseline: nominal concentration): 40%

CC[C@H](C)[C@@H]([C@@H](CC(=O)N1CCC[C@H]1[C@H](OC)[C@@H](C)C(=O)N[C@@H](Cc1ccccc1)C(=O)NCCCO)OC)N(C)C(=O)[C@@H](NC(=O)[C@H](C(C)C)N(C)C)C(C)C
fraction excreted via CYP metabolism (Sprague Dawley rat; intravenous, 120 h, dosed as NaPi2b ADC, recovery-corrected): 0.0376
